Assay results collected from several papers.
A part holds a random share of what one study measured. Substitutions count along the parent as printed.

Study 1
Target: RING finger protein unkempt homolog, zinc fingers 1-6, GST-SBP tag (UNK, Homo sapiens, UniProt Q9C0B0, residues 30-357)
Technique: RNA Bind-n-Seq
Form: RNA
Medium: in vitro
Tested at: not given
Notes: RNA with constant flanks, ends assumed
Reference: input RNA pool
Reading: higher = stronger binding
All sequences stand within: GGGAGUUCUACAGUCCGACGAUC … CAACAGAGGAUUGAGCAUCA
Target sequence (chain): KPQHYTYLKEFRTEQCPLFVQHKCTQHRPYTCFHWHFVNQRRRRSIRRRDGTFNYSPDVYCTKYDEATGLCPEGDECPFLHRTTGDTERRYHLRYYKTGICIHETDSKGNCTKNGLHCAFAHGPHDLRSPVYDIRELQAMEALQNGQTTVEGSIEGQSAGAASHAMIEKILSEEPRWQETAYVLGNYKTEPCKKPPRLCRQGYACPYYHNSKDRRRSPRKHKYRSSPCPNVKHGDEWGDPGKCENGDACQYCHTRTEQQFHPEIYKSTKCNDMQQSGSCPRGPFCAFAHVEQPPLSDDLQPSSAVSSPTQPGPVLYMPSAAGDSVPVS
| Oligonucleotide | bound/input enrichment [ratio] |
| --- | --- |
| CACAUCAAAGCAAUUCAGAUUAAAGAACAACUUCUUGGUCAAGAAGAUUAUGAAGCCGCCCUUUCAGUGGGACAUCUGGCUUCUUUAUAUAAUUAUGACAUGAAUCAGUAUGAAAAUGCU | 0.165 |
| AUUGCAGCUAAAUAUCAGUUGGAUCCCACUGCUUCCAUUUCUGCAAAAGUCAACAACUCCCGCUUAAUUGGAGUAGGCUAUACUCAGACUCUGAGGCCUGGUGUGAAGCUUACACUCUCU | 0.177 |
| AACUUCUCCGACUACAUCCGUGGAGGCAUCGUCAGUCAGGUCAAAGUACCUAAGAAGAUCCGCUUUAAAUCCUUGGUGGCCUCACUGGCAGAACCUGACUUUGUGGUGACGGACUUCGCC | 0.116 |
| CUGGGGGCCGGGGCGGUGGCCUACGGCGUCCGCGAAUCCGUGUUCACCGUGGAAGGCGGUCACCGAGCCAUCUUUUUUAAUCGUAUUGGUGGCGUGCAGCAGGACACGAUCCUGGCCGAA | 0.0925 |
| UUCUUCACUCCGUAUGUAUAUCCAGCCACGUGGCCCGAGGACAACAUCAUCCGACAAACUAUCCGCCUCCUGAUUGUCACAAACCUGGGUGCUUACAUUCUCUACUUCUUCUGUGCAACC | 0.356 |
| UGGAGUAGGUCUUAGAGUGUAACAGAUUGUUUUCCUGAGUUAUCCUCUAGGUGAGUAUGUUUCCGGACUAAACACCUUUUGCAGAUACUGAAAGUGCCUCCUUUUGUGGUAUACAAAACA | 0.104 |
| GGGGUUCUUGCUGCCGUUCUAAUAUUUUUUUAAGCAUAGACAGACUUAUAAUUAAUAUACGUCCGUCCGUGACAUUGAAACAGUCAACUCGGAAAUUAACUAUAAGACUUGUUCUAUUUA | 0.655 |
| CUUACACAUAAACUGGUAUUUUCGAACAAUAGGAAACUAUUUUUUCUCCUUUUUUUACAGUUUCCGUACGUAUCUGGCUUGUAUGUGGAAGACUAAAAAGUUGAUUUGCUAAAUGUGGUC | 0.208 |
| GGAUCAGACCUGUGAACUACCCAGAAGAAAUUGUCUGCUGCCCUUUUCCAAUCCAGUGAAUUCCGAUGCCCCUGAAGACAAGGACAGCCCUUUCGGAUGAUCCAGAUUCCAGUACCAGUA | 0.105 |
| AGCGGCUACAAGACCCUGGGUUCACUCCCCAGAACCACCAGAGGGUAAACACCAGACCUCCCGGUAAAAAUGAUAAAGUUAUUUUCUUGUUAUACAGUUUAGAGUGUUGCCUUUCACAUU | 1.86 |
| CGAUUACACAGGGUCAAGACCGUCUGCAGCAAGCACAUGCAUCCCCUCCGACUGGUGUGAGCCGUAAGAAAAGCACACACAGACAGGAGGACAUCUGGAGCCACACAAACUGGGUGGAAA | 0.0948 |

Study 2
Target: Hepatocyte nuclear factor 3-beta, forkhead domain (FOXA2, Homo sapiens, UniProt Q9Y261, residues 142-269)
Technique: protein-binding microarray
Form: double-stranded DNA, one strand shown
Medium: in vitro
Tested at: not given
Notes: k-mer, scored over probes, only values ≥0.25
Reading: higher = stronger binding
Construct (chain): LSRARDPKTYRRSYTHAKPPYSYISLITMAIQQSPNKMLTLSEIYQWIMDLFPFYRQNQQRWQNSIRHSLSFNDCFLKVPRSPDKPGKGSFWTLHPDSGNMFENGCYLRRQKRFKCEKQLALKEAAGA
| Oligonucleotide | E-score |
| --- | --- |
| AATATTGT | 0.33 |
| AATTAGTA | 0.282 |
| CAAATATA | 0.352 |
| TACGCATA | 0.292 |
| AGTTACAA | 0.301 |
| TAAACTAA | 0.269 |
| ATTACAAC | 0.342 |
| ACATATTC | 0.379 |
| AAATATCA | 0.287 |
| ATTATGCG | 0.259 |
| CCATTAAC | 0.314 |
| AGTAAACA | 0.392 |
| CATATATA | 0.403 |
| GTAGTAAA | 0.307 |
| AATTACTC | 0.263 |
| AAATAAAC | 0.346 |
| ACGAATAC | 0.278 |
| CTTCAACA | 0.271 |
| AACACATT | 0.269 |
| AACAAAAT | 0.306 |
| ATAATTAC | 0.356 |
| ATTACATA | 0.383 |
| ACATACAT | 0.412 |
| ACTCAATA | 0.274 |
| AATCAGTA | 0.297 |

Study 3
Target: RNA binding protein fox-1 homolog 2, RRM domain, GST-SBP tag (RBFOX2, Homo sapiens, UniProt O43251-10, residues 100-194)
Technique: RNA Bind-n-Seq
Form: RNA
Medium: in vitro
Tested at: 365 nM
Notes: natural RNA segment, single round, ends assumed
Reference: no-protein control
Reading: higher = stronger binding
All sequences stand within: GGGAGUUCUACAGUCCGACGAUC … UGGAAUUCUCGGGUGCCAA
Construct (chain): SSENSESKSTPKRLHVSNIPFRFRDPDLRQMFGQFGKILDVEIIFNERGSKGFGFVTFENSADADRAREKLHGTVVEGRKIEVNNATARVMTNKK
| Oligonucleotide | RBNS enrichment (R) |
| --- | --- |
| CCCUACCUCCGCCCCACCCCAUCAUCUGUGGACACUGGAGUCUGGAAUAAAUGCUGUUUGUCACAUCAACACCAUCCUGUGGCCAGAGCUUCCUCUGGGAGUAGGGAGGG | 0.348 |
| AUAUGAUUUUUUGACAGGCUGUUUCCUCGUCGUAUAGAUUUUUUCCAAUCAAACCUACUUUUUCCAUACUCUGUGCAUAUUUUUUGUGAAGUUAUACACAUUGAAGACCC | 1.01 |
| UGCCACCUCCCAAGGCAGAAAUCCCCUCUUCAGCUUCUUUUGUAGGUGGGAAUCCAGCCUCUGUUAGAUAUGUCCAGAGAUGGAAACUCACUCCCCUACAAAAGAUGGAG | 1.31 |
| CUUGGUUUAUCUGCACAGUACAAGCUGCUGGUAGACUACACUAGCCCUCUGGUUUCCCAGCGCAGCCUCUCAUACAGUGGACUGACAGCCUGCACUCUGUUUAGUCAGCC | 0.394 |
| CAUUGCUGCUGCAAGUCUGGCUCUUUGCCUCUGCUGUGCCAGGCCUCCAUGGUGUCUGCAUAGAGCCACGACAGAGGCAUUCCUCAGCUGUACCUCUGACUUUCUUGGCU | 0.172 |
| AUCUAAAACUAAAGCUGCCUGUGCUUGUUUGUAAAGCUUAUACUCCCAGAAUUAGCCUGAGCUGCUAAGAAUUCCUCAACCCAUUCCUCUAAGCUGAAAAGCACUCUUGU | 4.89 |
| GCCUGGCUGCCAGGCAACAGGAAGAAAGGCGUAUGGGAAAGUAGGAUGGAGACUGGAACCAUCCUACUGCUGCCAGCUGGAAGCUUUUCUCAGAGAGCCAAAGCUGAAUU | 0.518 |
| GCCAAGAAGUGAUACAGGGUGUCAUAUGCAAAUUAGCAAACAGGAAAGGCGGCAAUAUUCAAACCAGAGACCCUGGGCAUCGGUGUAGCCAGUCUGAAGGCCUGAGCCAG | 0.627 |
| CUCAGUUUUUAUGAACUGUUGUAUCCUGUUAAUGCAUAUUGCUCUGUGACUCCAGUAUAUCUUACCUGUACUGACCAAACCUAAAUAAAGAUUUUUAUUGUAACUCCUUA | 1.92 |
| CCAUCACUGUAAUUUAUGGCCCCCGCCGUGGGGCAGCCUAGCCCUUGUGUCUGUGUAUAUACUGUGCCUUUUCUCCUUGUCGAGGGGUGGGAGGGGUUGGUUUUUCACUG | 0.317 |
| AGUGCAAUCUUCGUUGUUUUUGUAUUUAUUUGUAUGUUCAGAUCCAAAGGAUCCGUUGUAAAAAUAUAUAUAUAUAAAUAUAUGUAUAUCCAGUGCAAUCAACUGUCAUU | 1.63 |
| AUAUUGCAACCCAGUAUAGGUGUAUUUCAAAAGCUAUUUAUAAAACUCAGAACAAUUUAACUUGCUAAUUAUAUCACCUUCCAGAUUGGAGAAAGGAGACAGUAAGGUAU | 0.549 |

Study 4
Target: ABI1, truncated, D143A, DHFR fusion (Arabidopsis thaliana)
Technique: DHFR PCA, deep sequencing
Medium: yeast
Notes: methotrexate growth selection, single substitutions
Together with: (+)-ABA 1.4 µM
Reference: wild-type fitted maximum
Reading: higher = stronger binding
Starting sequence: PYL1, truncated, DHFR fusion (Arabidopsis thaliana); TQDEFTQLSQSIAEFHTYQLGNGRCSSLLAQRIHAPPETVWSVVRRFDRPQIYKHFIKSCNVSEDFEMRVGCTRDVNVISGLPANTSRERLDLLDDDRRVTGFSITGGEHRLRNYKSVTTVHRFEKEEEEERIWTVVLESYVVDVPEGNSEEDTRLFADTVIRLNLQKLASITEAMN; partner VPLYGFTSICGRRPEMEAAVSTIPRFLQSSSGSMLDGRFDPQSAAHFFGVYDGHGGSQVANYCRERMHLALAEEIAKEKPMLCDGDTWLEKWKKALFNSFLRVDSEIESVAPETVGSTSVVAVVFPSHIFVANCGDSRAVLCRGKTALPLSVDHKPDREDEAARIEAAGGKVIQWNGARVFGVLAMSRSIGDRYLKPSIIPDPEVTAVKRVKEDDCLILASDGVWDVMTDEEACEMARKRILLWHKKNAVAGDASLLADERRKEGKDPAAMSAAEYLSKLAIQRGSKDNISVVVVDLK
| Substitution | relative binding score [%] |
| --- | --- |
| E128I | 40.5 |
| C25Q | -4.95 |
| T6C | 53.2 |
| A84D | 11 |
| V137T | -3.94 |
| E38N | 26.8 |
| A35C | 24.2 |
| S27A | 28.4 |
| E131C | 63.6 |
| V78K | -7.89 |
| R99L | 73.9 |
| N149Q | 39.1 |
| L169C | -4.08 |
| S26K | 4.7 |
| N177F | 37 |
| I162K | 5.57 |
| L164K | 9.29 |

Repeated from above (study 2):
| Oligonucleotide | E-score |
| --- | --- |
| TAAACTAA | 0.269 |
| ATTACAAC | 0.342 |
| ACATATTC | 0.379 |
| AAATATCA | 0.287 |
| ATTATGCG | 0.259 |
| CCATTAAC | 0.314 |
